Experimental data from different studies.
Numbered parts are unrelated; each lists some results of a single study. “And” joins repeats or separate records; there may be more than shown.
Sequence of UniProt Q92772 (whole entry, looked up): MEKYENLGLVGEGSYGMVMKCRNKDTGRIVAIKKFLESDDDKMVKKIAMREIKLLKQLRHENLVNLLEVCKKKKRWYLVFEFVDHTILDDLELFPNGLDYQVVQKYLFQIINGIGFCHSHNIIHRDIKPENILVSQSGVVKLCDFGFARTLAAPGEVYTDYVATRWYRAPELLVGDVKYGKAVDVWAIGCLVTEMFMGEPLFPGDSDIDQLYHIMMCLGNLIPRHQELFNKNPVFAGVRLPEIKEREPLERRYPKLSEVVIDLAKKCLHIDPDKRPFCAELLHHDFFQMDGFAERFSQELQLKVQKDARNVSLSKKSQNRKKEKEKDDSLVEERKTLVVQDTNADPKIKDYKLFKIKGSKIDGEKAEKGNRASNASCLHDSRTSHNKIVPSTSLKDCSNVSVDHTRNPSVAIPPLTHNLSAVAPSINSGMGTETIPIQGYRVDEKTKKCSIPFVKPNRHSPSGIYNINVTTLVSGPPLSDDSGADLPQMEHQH
Sequence of UniProt Q8N5S9 (whole entry, looked up): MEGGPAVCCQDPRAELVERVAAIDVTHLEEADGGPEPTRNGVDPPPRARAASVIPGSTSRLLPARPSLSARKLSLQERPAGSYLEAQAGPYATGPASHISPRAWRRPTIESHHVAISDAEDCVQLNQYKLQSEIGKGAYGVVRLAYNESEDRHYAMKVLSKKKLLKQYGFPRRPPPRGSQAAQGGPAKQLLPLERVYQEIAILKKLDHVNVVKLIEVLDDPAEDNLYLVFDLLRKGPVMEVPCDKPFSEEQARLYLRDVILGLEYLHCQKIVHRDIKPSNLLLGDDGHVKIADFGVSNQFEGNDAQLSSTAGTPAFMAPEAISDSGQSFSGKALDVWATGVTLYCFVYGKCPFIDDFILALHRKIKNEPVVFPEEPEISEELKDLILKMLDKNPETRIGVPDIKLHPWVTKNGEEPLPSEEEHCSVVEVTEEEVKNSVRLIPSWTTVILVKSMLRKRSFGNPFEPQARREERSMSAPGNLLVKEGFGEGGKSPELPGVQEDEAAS
Sequence of UniProt P80192 (whole entry, looked up): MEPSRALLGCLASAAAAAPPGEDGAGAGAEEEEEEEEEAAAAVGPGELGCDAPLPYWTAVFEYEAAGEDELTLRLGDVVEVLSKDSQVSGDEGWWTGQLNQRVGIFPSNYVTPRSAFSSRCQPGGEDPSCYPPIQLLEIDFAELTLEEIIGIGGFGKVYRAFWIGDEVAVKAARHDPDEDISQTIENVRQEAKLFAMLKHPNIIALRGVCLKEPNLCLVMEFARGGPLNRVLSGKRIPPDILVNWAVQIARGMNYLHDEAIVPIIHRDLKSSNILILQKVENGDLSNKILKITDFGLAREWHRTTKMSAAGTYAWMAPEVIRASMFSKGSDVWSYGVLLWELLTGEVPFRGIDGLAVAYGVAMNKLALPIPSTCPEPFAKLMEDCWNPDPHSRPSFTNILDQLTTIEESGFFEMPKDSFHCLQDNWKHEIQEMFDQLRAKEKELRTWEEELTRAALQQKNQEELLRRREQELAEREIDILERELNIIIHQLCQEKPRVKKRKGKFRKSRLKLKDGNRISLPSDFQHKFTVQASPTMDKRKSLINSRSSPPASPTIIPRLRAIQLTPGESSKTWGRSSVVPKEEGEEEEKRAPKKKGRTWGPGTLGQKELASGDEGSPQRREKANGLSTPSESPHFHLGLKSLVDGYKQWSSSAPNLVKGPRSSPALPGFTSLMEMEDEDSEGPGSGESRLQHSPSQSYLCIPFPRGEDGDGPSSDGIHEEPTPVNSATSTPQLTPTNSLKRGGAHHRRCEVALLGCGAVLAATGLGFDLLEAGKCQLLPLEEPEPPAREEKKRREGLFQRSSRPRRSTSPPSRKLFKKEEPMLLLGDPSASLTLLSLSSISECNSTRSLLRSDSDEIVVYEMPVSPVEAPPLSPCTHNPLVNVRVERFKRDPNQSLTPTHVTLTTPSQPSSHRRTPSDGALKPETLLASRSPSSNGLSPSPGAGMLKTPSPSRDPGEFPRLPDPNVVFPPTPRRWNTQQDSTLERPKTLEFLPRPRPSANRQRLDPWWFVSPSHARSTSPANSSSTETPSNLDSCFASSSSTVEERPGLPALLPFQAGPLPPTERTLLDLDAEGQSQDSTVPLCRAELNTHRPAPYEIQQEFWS
Sequence of UniProt Q8TF76 (whole entry, looked up): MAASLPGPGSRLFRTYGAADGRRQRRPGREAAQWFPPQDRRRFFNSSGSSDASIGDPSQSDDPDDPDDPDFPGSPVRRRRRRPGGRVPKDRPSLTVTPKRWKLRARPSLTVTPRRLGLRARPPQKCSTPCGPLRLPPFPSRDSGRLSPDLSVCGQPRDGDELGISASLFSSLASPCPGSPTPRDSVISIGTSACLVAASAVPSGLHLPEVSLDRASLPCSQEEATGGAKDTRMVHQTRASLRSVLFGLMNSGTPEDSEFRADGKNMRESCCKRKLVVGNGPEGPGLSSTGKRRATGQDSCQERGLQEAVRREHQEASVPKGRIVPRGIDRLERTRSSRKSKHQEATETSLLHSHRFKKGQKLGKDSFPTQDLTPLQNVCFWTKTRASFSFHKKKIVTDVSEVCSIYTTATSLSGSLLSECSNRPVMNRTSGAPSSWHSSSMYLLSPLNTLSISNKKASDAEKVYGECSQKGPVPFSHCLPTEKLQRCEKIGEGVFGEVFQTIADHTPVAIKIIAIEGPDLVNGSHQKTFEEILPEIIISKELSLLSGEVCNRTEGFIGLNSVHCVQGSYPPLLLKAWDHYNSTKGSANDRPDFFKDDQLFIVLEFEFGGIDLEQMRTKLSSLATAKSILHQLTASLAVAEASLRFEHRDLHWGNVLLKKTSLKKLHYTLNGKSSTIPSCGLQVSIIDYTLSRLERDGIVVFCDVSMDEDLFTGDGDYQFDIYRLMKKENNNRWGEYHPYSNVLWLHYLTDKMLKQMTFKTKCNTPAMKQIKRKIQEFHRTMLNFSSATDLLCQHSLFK
Sequence of UniProt P49759 (whole entry, looked up): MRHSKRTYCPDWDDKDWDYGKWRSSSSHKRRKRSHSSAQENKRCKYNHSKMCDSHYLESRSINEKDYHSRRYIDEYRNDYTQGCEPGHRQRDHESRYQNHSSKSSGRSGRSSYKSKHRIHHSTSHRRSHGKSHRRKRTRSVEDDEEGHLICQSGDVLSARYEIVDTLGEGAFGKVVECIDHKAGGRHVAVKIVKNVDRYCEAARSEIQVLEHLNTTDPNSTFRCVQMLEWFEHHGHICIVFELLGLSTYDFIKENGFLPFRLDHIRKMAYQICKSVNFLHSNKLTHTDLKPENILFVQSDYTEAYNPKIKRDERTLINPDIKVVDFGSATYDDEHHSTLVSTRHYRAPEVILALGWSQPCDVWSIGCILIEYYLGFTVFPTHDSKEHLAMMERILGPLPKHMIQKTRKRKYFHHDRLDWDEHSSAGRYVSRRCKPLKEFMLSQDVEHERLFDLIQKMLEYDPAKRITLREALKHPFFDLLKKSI
Sequence of UniProt Q9H0K1 (whole entry, looked up): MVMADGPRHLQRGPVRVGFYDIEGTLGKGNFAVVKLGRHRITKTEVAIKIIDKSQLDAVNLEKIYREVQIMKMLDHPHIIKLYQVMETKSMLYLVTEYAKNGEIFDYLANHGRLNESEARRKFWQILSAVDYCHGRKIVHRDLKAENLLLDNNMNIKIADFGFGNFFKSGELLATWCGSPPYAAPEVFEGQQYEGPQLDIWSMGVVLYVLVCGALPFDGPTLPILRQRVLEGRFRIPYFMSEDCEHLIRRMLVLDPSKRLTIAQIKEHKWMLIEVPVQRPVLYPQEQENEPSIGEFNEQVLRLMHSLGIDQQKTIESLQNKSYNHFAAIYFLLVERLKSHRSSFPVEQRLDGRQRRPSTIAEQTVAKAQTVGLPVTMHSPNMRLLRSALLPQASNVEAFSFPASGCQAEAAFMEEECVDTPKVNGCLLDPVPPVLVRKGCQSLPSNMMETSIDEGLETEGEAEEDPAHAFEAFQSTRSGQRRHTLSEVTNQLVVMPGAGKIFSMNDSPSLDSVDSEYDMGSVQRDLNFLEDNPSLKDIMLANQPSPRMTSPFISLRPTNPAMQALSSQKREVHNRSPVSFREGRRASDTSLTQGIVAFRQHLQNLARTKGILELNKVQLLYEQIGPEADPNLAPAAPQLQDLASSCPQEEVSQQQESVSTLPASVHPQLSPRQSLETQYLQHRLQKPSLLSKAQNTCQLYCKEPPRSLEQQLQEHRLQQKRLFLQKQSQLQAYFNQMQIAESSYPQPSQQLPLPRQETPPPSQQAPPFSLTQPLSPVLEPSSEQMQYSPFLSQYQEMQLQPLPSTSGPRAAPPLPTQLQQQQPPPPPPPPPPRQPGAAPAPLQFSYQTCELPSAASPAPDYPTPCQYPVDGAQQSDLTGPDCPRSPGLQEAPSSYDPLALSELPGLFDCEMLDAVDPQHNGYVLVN

Series 1
Structure (SMILES): CN1CCN(C(=O)c2ccc(NC(=O)Nc3ccc(N(C)c4ccnc(Nc5ccc(CS(C)(=O)=O)cc5)n4)cc3)cc2)CC1
Method: competitive binding panel
Tested at: 1 µM
Reference: vehicle
Endpoint: remaining binding
CDKL2 (Homo sapiens, UniProt Q92772): 1.7%
LRRK2 (Homo sapiens, UniProt Q5S007): 74%
TSSK3 (Homo sapiens, UniProt Q96PN8): 75%
PAK3 (Homo sapiens, UniProt O75914): 0%
MAST1 (Homo sapiens, UniProt Q9Y2H9): 61%
MST1R (Homo sapiens, UniProt Q04912): 41%
STK36 (Homo sapiens, UniProt Q9NRP7): 37%
CLK1 (Homo sapiens, UniProt P49759): 84%
PAK5 (Homo sapiens, UniProt Q9P286); refers to: PAK7: 67%
MAP3K9 (Homo sapiens, UniProt P80192); refers to: MLK1: 86%
HASPIN (Homo sapiens, UniProt Q8TF76): 92%
MAP2K7 (Homo sapiens, UniProt O14733); refers to: MKK7: 95%

Series 2
Target: SRSF protein kinase 3 (SRPK3, Homo sapiens, UniProt Q9UPE1)
Sequence of UniProt Q9UPE1 (whole entry, looked up): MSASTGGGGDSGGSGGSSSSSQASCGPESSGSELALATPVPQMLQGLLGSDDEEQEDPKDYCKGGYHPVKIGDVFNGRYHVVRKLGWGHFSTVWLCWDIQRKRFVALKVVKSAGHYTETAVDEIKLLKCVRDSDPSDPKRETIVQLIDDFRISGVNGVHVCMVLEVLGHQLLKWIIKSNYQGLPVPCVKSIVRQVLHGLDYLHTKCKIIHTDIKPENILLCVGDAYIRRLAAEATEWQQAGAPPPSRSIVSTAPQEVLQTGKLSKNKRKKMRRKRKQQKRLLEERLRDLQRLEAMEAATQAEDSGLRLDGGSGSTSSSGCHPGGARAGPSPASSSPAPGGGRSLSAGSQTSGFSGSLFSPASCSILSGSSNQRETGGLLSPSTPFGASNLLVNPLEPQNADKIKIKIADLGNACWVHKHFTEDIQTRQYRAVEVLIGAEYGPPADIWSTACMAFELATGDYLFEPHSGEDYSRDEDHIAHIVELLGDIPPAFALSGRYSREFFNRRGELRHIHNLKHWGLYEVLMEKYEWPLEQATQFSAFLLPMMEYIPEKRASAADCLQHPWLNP
Observed: enzyme activity
Action: inhibitor
Tested at: 0.5 µM
Reference: control
Endpoint: remaining activity
CC(C)n1cnc2c(Nc3cccc(Cl)c3)nc(NCCO)nc21: 47.7%
COc1cc2c(Nc3ccc(Br)cc3F)ncnc2cc1OCC1CCN(C)CC1: 102%
Nc1nc(Nc2ccc(S(N)(=O)=O)cc2)nn1C(=S)Nc1c(F)cccc1F: 48.7%
CNc1cc2c(Nc3cccc(Br)c3)ncnc2cn1: 97.1%
c1cc(-c2cnn3cc(-c4ccc(OCCN5CCCCC5)cc4)cnc23)ccn1: 94.8%
NC(=O)c1ccc(-c2nc(-c3ccc4c(c3)OCCO4)c(-c3ccccn3)[nH]2)cc1: 98.5%
N#CC(c1ccnc(NCCc2cccnc2)n1)c1nc2ccccc2s1 (centres unmarked): 89.5%
N#C/C(=C(/N)SC1C=CC=CC1)c1cccc(C(O)c2ccncc2)c1 (centres unmarked): 96.1%
O=C1NC(=O)/C(=C/c2ccc3c(c2)OC(F)(F)O3)S1: 95.4%
NC(=O)c1cccc(-c2cc(Nc3ccc(OC(F)(F)F)cc3)ncn2)c1: 94.3%
O=C(c1ccccc1)c1ccc(N2CCOCC2)cc1O: 103%
COc1cc2c(N3CCN(C(=O)Nc4ccc(OC(C)C)cc4)CC3)ncnc2cc1OCCCN1CCCCC1: 102%
C[C@@H](N)[C@H]1CC[C@H](C(=O)Nc2ccncc2)CC1: 99.1%
FC(F)(F)c1ccc(/C=C/c2nc(COc3ccc(CCCCn4ccnn4)cc3)co2)cc1: 104%
CC(C)(C)c1nc2c3cc[nH]c(=O)c3c3cc(F)ccc3c2[nH]1: 58.6%
CCCCc1c(-c2ccc(O)cc2)[nH]c2nccnc12: 98.6%
O=C(O)/C=C/c1cc(Br)c(Br)c(Br)c1Br: 66.9%
CC(C)N(CCC(=O)c1ccc2ccccc2c1)Cc1ccccc1: 96.5%
Clc1ccc(Nc2nnc(Cc3ccncc3)c3ccccc23)cc1: 104%
O=Nc1c(-c2c(O)[nH]c3ccccc23)[nH]c2ccccc12: 97.5%
CCN(CC)CCCCN1c2ccccc2Oc2ccc(Cl)cc21: 104%

Series 3
Structure (SMILES): CC#CC(=O)N1CCC[C@H]1c1nc(-c2ccc(C(=O)Nc3ccccn3)cc2)c2c(N)nccn12
Action: inhibitor
Tested at: 1 µM
Endpoint: inhibition
ALK (Homo sapiens, UniProt Q9UM73); enzyme activity: 8%
TRPM6 (Homo sapiens, UniProt Q9BX84): 12%
CSNK1D (Homo sapiens, UniProt P48730); enzyme activity: 2%
TAOK1 (Homo sapiens, UniProt Q7L7X3); enzyme activity: 0%
VRK2 (Homo sapiens, UniProt Q86Y07); enzyme activity: 32%
MAP3K1 (Homo sapiens, UniProt Q13233); enzyme activity: 0%
TESK1 (Homo sapiens, UniProt Q15569); enzyme activity: 15%
PRKACB (Homo sapiens, UniProt P22694); enzyme activity: 0%
PIP4K2B (Homo sapiens, UniProt P78356); enzyme activity: 4%
NIM1K (Homo sapiens, UniProt Q8IY84); enzyme activity: 0%
CAMK2A (Homo sapiens, UniProt Q9UQM7); enzyme activity: 0%
CAMKK1 (Homo sapiens, UniProt Q8N5S9); enzyme activity: 0%
KIT (Homo sapiens, UniProt P10721, D816H); enzyme activity: 0%
SIK2 (Homo sapiens, UniProt Q9H0K1); enzyme activity: 0%
CAMKK2 (Homo sapiens, UniProt Q96RR4); enzyme activity: 0%

Other studies, line by line
Tested at: 10 µM
CO[C@H]1CC[C@H](CNc2ccc(S(=O)(=O)NC(=O)c3ccc(N4CCN(CC5=C(c6ccc(Cl)cc6)CC(C)(C)CC5)CC4)cc3Oc3cnc4[nH]ccc4c3)cc2[N+](=O)[O-])CC1  inhibition (HTR5A (Homo sapiens, UniProt P47898); ligand displacement): -24.9%
Cn1cncc1[C@@](O)(COc1ccc(C#N)cc1-c1ccc(OC(F)(F)F)cc1)c1ccc(C#N)cc1  cells with fragmented nuclei (HEK293T; high-content imaging; 12 h): 3.98% and 12.4%

Repeated from above (series 2):
CCCCc1c(-c2ccc(O)cc2)[nH]c2nccnc12: 98.6%
O=C(O)/C=C/c1cc(Br)c(Br)c(Br)c1Br: 66.9%
CC(C)N(CCC(=O)c1ccc2ccccc2c1)Cc1ccccc1: 96.5%
Clc1ccc(Nc2nnc(Cc3ccncc3)c3ccccc23)cc1: 104%
O=Nc1c(-c2c(O)[nH]c3ccccc23)[nH]c2ccccc12: 97.5%
